Experimental data gathered from unrelated publications.
Compare with care: the assays were run in different laboratories.
EGFR L861Q: Epidermal growth factor receptor (EGFR, Homo sapiens, UniProt P00533, L861Q)

CCN1CCN(Cc2ccc(C(=O)Nc3ccc(C)c(NCc4cnc5[nH]ccc5c4OC)c3)cc2C(F)(F)F)CC1  remaining binding (EGFR (Homo sapiens, UniProt P00533); binding, competition with immobilised ligand; 1 µM): 4%
CNC1C[S+]2CC[S+]3CC[S+](C1)[Ru-4]321([N]=C=S)[n]2c3ccc(OC)cc3c3c4c(c5cc(F)c[n+]1c5c32)C(=O)NC4=O (stereo not drawn)  remaining binding (EGFR (Homo sapiens, UniProt P00533, L858R); KinomeScan; 0.1 µM; baseline: untreated): 98%
Nc1ncc2c(n1)-c1c([nH]c3ccc(C4=CCOCC4)cc13)CCC2  remaining binding (EGFR (Homo sapiens, UniProt P00533, del746-750); binding, competition with immobilised ligand; 1 µM): 21%
C=CC(=O)N1CCc2ccc(-n3c(=O)ccc4cnc5ccc(-c6cnn(C)c6)cc5c43)cc21  remaining binding (EGFR (Homo sapiens, UniProt P00533, del747-752/P753S); KINOMEscan; 1 µM; baseline: control): 98%
O=C=[N][Ru-4]123([n]4c5ccc(O)cc5c5c6c(c7cc(F)c[n+]1c7c54)C(=O)NC6=O)[S+]1CC[S+]2CC[S+]3CC1 (stereo not drawn)  remaining activity (EGFR L861Q; enzyme activity; 100 nM, human enzyme, together with: 10 µM ATP; baseline: untreated): 111%
CC(C)=CC1OC(C)(C)C2C=C3C(=O)C(Cl)=CC(O)C3C3C(O)C4OC4C(=O)C132 (stereo not drawn)  remaining binding (EGFR (Homo sapiens, UniProt P00533, G719C); cell-free assay, competition with immobilised ligand; 10 µM): 96%
CNC(=O)C1CCN(c2cc(C)c(F)cc2NC(=O)c2ccc(-c3cc(O)ccc3C)c(C)c2)CC1  remaining binding (EGFR L861Q; binding, competition with immobilised ligand; 1 µM): 54%
COCC12C(=O)NC3C4(C(OC)CC1O)C1CC5(O)C(OC)C(O)C(OC(C)=O)(C1C5OC(=O)c1ccccc1)C3(O)C(OC)C24 (stereo not drawn)  remaining activity (EGFR (Homo sapiens, UniProt P00533, L858R/T790M); kinase activity, inhibitor, ProQinase kinase profiling; 25 µM; baseline: control): 98%
CCN1CCN(Cc2ccc(NC(=O)c3ccc(C)c(NC(=O)c4cncc(-c5cccs5)c4)c3)cc2C(F)(F)F)CC1  remaining binding (EGFR L861Q; binding, competition with immobilised ligand; 1 µM): 0.1%
